Experimental data of several laboratories.
Protocols differ between the studies behind these lines.

Structure (SMILES) | organism | assay | test system | setting | MIC
CC[C@@H](C)[C@@H](NC(=O)[C@@H](C)N)C(=O)N[C@H](CCCCN)C(=O)N[C@@H](C(=O)N[C@H](CCCNC(=N)N)C(=O)N[C@H](CCCCN)C(=O)N[C@H](CC(C)C)C(=O)N[C@H](Cc1ccccc1)C(=O)N[C@H](CCCCN)C(=O)N[C@H](CCCCN)C(=O)N[C@H](CC(C)C)C(=O)N[C@H](CC(C)C)C(=O)N[C@H](CCCNC(=N)N)C(N)=O)[C@H](C)CC | Escherichia coli |  | ATCC 25922 | 1 h, 37 °C, dividing cells in LB | 12.5 µg/mL
CC(=O)N[C@H](CCCCN)C(=O)N[C@H](CC(C)C)C(=O)N[C@H](CCCCN)C(=O)N[C@H](CO)C(=O)N[C@H](CC(C)C)C(=O)N[C@H](CC(C)C)C(=O)N[C@H](CCCCN)C(=O)N[C@@H](C(=O)N[C@H](CC(C)C)C(=O)N[C@H](CO)C(=O)N[C@H](CCCCN)C(=O)N[C@H](C)C(=O)N[C@H](CCCCN)C(=O)N[C@H](CCCCN)C(=O)N[C@H](CCCCN)C(=O)N[C@H](CCCCN)C(=O)N[C@H](CC(C)C)C(=O)N[C@H](CCCCN)C(=O)N[C@@H](C(=O)N[C@H](CC(C)C)C(=O)N[C@H](CC(C)C)C(=O)N[C@H](CCCCN)C(=O)N[C@H](C)C(=O)N[C@H](CC(C)C)C(=O)N[C@H](CO)C(=O)N[C@H](CCCCN)C(N)=O)[C@H](C)O)[C@H](C)O | Acinetobacter baumannii |  | 1012, Mueller-Hinton broth | 24 h, 37 °C | 0.3 µM
C[C@@H](c1ccn(Cc2c(F)cccc2F)n1)[C@](O)(Cn1cnnn1)c1ccc(F)cc1F | Cryptococcus neoformans | growth, broth microdilution | H99 | 72 h, 30 °C, ≥50% inhibition | 0.0625 µg/mL
N#Cc1ccc(-c2c[nH]c(CNC(=O)Nc3ncc(Sc4ccccn4)s3)n2)cc1 | Clostridioides difficile | broth microdilution | R20291 | with: verapamil 50 µg/mL | 2 µM
Cc1ccc(Cn2ccc([C@H](C)[C@](O)(Cn3cnnn3)c3ccc(F)cc3F)n2)cc1 | Cryptococcus neoformans | growth, broth microdilution | H99 | 72 h, 30 °C, ≥50% inhibition | < 0.008 µg/mL
CC(=O)N[C@H](CCCCN)C(=O)N[C@H](CC(C)C)C(=O)N[C@H](CCCCN)C(=O)N[C@H](CO)C(=O)N[C@H](CC(C)C)C(=O)N[C@H](CC(C)C)C(=O)N[C@H](CCCCN)C(=O)N[C@@H](C(=O)N[C@H](CC(C)C)C(=O)N[C@H](CO)C(=O)N[C@H](CCCCN)C(=O)N[C@H](C)C(=O)N[C@H](CCCCN)C(=O)N[C@H](CCCCN)C(=O)N[C@H](CCCCN)C(=O)N[C@H](CC(C)C)C(=O)N[C@H](CC(C)C)C(=O)N[C@H](CCCCN)C(=O)N[C@@H](C(=O)N[C@H](C)C(=O)N[C@H](CC(C)C)C(=O)N[C@H](CCCCN)C(=O)N[C@H](C)C(=O)N[C@H](CC(C)C)C(=O)N[C@H](CO)C(=O)N[C@H](CCCCN)C(N)=O)[C@H](C)O)[C@H](C)O | Acinetobacter baumannii |  | 985, Mueller-Hinton broth | 24 h, 37 °C | 0.3 µM
CCCC/C=C/C(=O)N[C@@H](Cc1cc(F)cc(F)c1)C(=O)N[C@@H](COC(=O)[C@@H]1CCCN1C(C)=O)C(=O)OC | Mycobacterium tuberculosis |  | H37Rv | without verapamil | ~23 µM
Oc1c(Br)ccc2cccnc12 | Citrobacter freundii | microbial growth, agar dilution |  |  | 35.7 µM
C[C@@H](c1ccn(Cc2ccc(F)c(C(F)(F)F)c2)n1)[C@](O)(Cn1cnnn1)c1ccc(F)cc1F | Cryptococcus neoformans | growth, broth microdilution | H99 | 72 h, 30 °C, ≥50% inhibition | 0.5 µg/mL
C/C(=N/NC(=N)N)c1nnn(-c2ccc(C#CC(C)(C)C)cc2)c1C | Clostridioides difficile | microbial growth, broth dilution | BAA1870 |  | 4 µg/mL
Cc1c(CN(C)C(=O)/C=C/c2cnc3c(c2)CC(N)C(=O)N3)oc2ccccc12 (centres unmarked) | Enterobacter cloacae, Klebsiella pneumoniae, Acinetobacter baumannii |  |  |  | 4 to 8 µg/mL
CCC(O)CC#Cc1ccc(-n2nnc(/C(C)=N\NC(=N)N)c2C)cc1 (centres unmarked) | Clostridioides difficile | microbial growth, broth dilution | BAA1870 |  | > 64 µg/mL
Oc1c(Br)cc(Br)c2nc3c(C(F)(F)F)cc(C(F)(F)F)cc3nc12 | Gram-positive bacteria |  |  | range over strain panel | 0.05 to 0.2 µM
N#Cc1ccc2cccc(O)c2n1 | Citrobacter freundii | microbial growth, agar dilution |  |  | > 1500 µM
C[C@@H](c1ccn(Cc2ccc(C(C)(C)C)cc2)n1)[C@](O)(Cn1cnnn1)c1ccc(F)cc1F | Cryptococcus neoformans | growth, broth microdilution | H99 | 72 h, 30 °C, ≥50% inhibition | 1 µg/mL
O=C(NCc1nc(-c2ccc(Br)cc2)c[nH]1)Nc1ncc(Sc2ccccn2)s1 | Clostridioides difficile | broth microdilution | R20291 | with: verapamil 50 µg/mL | 4 µM
Oc1c(Cl)cc(Cl)c2cccnc12 | Citrobacter freundii | microbial growth, agar dilution |  |  | 37.4 µM
C[C@@H](c1ccn(Cc2ccc(C(F)(F)F)cc2)n1)[C@](O)(Cn1cnnn1)c1ccc(F)cc1F | Cryptococcus neoformans | growth, broth microdilution | H99 | 72 h, 30 °C, ≥50% inhibition | < 0.008 µg/mL
Oc1c(Br)cc(Br)c2nc3cc(Cc4ccccc4)ccc3nc12 | Gram-positive bacteria |  |  | range over strain panel | 0.1 to 0.78 µM
C[C@@H](c1ccn(Cc2c(F)ccc(F)c2F)n1)[C@](O)(Cn1cnnn1)c1ccc(F)cc1F | Cryptococcus neoformans | growth, broth microdilution | H99 | 72 h, 30 °C, ≥50% inhibition | 0.125 µg/mL
CC1(C)S[C@@H]2[C@H](NC(=O)[C@H](NC(=O)C3=C(O)C(c4ccccc4F)NC3=O)c3ccccc3)C(=O)N2[C@H]1C(=O)O (some centres unmarked) | Escherichia coli | broth microdilution | BW25113, Mueller-Hinton broth | with: 2,2'-bipyridyl 30 µg/mL | 25 µg/mL
C[C@@H]1C(=O)O[C@@H](C)/C=C/C=C\[C@@H](C)[C@@H]2C=C[C@@H]3C[C@@]4(C)O[C@H]4[C@@H](C)[C@H]3[C@@H]2C(=O)C(Cl)(Cl)C1=O | Staphylococcus aureus | microbial growth, broth dilution | NEWMAN |  | 0.0125 µg/mL
COc1c(NC(=O)c2ccc(NC(=O)c3ccc(NC(=O)[C@H](CC#N)NC(=O)c4ccc(NC(=O)/C(C)=C/c5ccc(O)cc5)cc4)cc3)c(OC)c2O)ccc(C(=O)O)c1O | Proteus mirabilis | microbial growth | DSM4479 |  | > 64 µg/mL

Excerpt of the above:
Structure (SMILES) | organism | assay | test system | setting | MIC
CC[C@@H](C)[C@@H](NC(=O)[C@@H](C)N)C(=O)N[C@H](CCCCN)C(=O)N[C@@H](C(=O)N[C@H](CCCNC(=N)N)C(=O)N[C@H](CCCCN)C(=O)N[C@H](CC(C)C)C(=O)N[C@H](Cc1ccccc1)C(=O)N[C@H](CCCCN)C(=O)N[C@H](CCCCN)C(=O)N[C@H](CC(C)C)C(=O)N[C@H](CC(C)C)C(=O)N[C@H](CCCNC(=N)N)C(N)=O)[C@H](C)CC | Escherichia coli |  | ATCC 25922 | 1 h, 37 °C, dividing cells in LB | 12.5 µg/mL
CC(=O)N[C@H](CCCCN)C(=O)N[C@H](CC(C)C)C(=O)N[C@H](CCCCN)C(=O)N[C@H](CO)C(=O)N[C@H](CC(C)C)C(=O)N[C@H](CC(C)C)C(=O)N[C@H](CCCCN)C(=O)N[C@@H](C(=O)N[C@H](CC(C)C)C(=O)N[C@H](CO)C(=O)N[C@H](CCCCN)C(=O)N[C@H](C)C(=O)N[C@H](CCCCN)C(=O)N[C@H](CCCCN)C(=O)N[C@H](CCCCN)C(=O)N[C@H](CC(C)C)C(=O)N[C@H](CC(C)C)C(=O)N[C@H](CCCCN)C(=O)N[C@@H](C(=O)N[C@H](C)C(=O)N[C@H](CC(C)C)C(=O)N[C@H](CCCCN)C(=O)N[C@H](C)C(=O)N[C@H](CC(C)C)C(=O)N[C@H](CO)C(=O)N[C@H](CCCCN)C(N)=O)[C@H](C)O)[C@H](C)O | Acinetobacter baumannii |  | 985, Mueller-Hinton broth | 24 h, 37 °C | 0.3 µM
